Assay results from different studies.
Lines come from different studies, so protocols differ.
UniProt Q9NUW8, sequence (whole entry, looked up): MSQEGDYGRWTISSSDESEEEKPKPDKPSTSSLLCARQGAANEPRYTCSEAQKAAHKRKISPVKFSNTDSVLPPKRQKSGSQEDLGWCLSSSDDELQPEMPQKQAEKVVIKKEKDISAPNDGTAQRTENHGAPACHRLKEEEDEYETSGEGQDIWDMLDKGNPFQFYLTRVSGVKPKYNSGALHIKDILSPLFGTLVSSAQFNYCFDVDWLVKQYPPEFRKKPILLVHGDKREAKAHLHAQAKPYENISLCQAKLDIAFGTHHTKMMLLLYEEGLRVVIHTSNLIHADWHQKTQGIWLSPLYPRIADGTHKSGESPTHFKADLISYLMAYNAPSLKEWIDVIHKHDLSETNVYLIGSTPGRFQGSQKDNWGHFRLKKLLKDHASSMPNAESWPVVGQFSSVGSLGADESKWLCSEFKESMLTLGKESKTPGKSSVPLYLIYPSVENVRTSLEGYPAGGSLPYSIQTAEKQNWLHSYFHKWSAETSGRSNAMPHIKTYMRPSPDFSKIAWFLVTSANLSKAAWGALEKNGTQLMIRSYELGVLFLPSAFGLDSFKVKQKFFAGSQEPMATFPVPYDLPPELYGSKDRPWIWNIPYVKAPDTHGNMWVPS

COc1cc(Cc2cnc(N)nc2N)cc(OC)c1OC.O=c1[nH]cc(F)c(=O)[nH]1
MIC (Escherichia coli; broth microdilution; 24 h): > 32 µg/mL

C#CCOc1ccc(CN[C@@]2(C)C[C@H](O[C@H]3[C@H](Oc4c5cc6cc4Oc4ccc(cc4Cl)[C@@H](O)[C@@H](NC(=O)[C@@H](CC(C)C)NC)C(=O)N[C@@H](CC(N)=O)C(=O)N[C@H]6C(=O)N[C@H]4C(=O)N[C@H](C(=O)N[C@H](C(=O)NCC(N)=O)c6cc(O)cc(O)c6-c6cc4ccc6O)[C@H](O)c4ccc(c(Cl)c4)O5)O[C@H](CO)[C@@H](O)[C@@H]3O)O[C@@H](C)[C@H]2O)cc1OC
MIC (Escherichia coli; broth microdilution; ATCC 25922; 18 to 20 h): 64 µg/mL

COc1nc(C(=O)Nc2ccc(C(=O)O)c(O)c2OC)ccc1NC(=O)c1ccc(NC(=O)[C@H](Cc2c[nH]nn2)NC(=O)c2ccc(NC(=O)/C(C)=C/c3ccc(O)cc3)cc2)cc1
MIC (Escherichia coli; broth microdilution; ciprofloxacin-sensitive): 0.031 µg/mL

CC[C@H]1OC(=O)[C@H](C)[C@@H](OC(=O)Cc2cccc3ccccc23)[C@H](C)[C@@H](O[C@@H]2O[C@H](C)C[C@H](N(C)C)[C@H]2O)[C@](C)(OC)C[C@@H](C)C(=O)[C@H](C)[C@@H](O)[C@]1(C)O
MIC (Escherichia coli; microbial growth; ATCC25922): > 32 µg/mL

CC[C@H](C)[C@H](NC(=O)[C@@H](CCCNC(=N)N)NC(=O)[C@H](CCCNC(=N)N)NC(=O)[C@@H]1CCCN1C(=O)[C@@H]1CCCN1C(=O)[C@H](CCCNC(=N)N)NC(=O)[C@@H]1CCCN1C(=O)[C@H](CCCNC(=N)N)NC(=O)[C@@H]1CCCN1C(=O)[C@H](CCCNC(=N)N)NC(=O)[C@H](Cc1ccc(O)cc1)NC(=O)[C@@H]1CCCN1C(=O)[C@@H]1CCCN1C(=O)[C@H](CCCCN)NC(=O)[C@H](CC(=O)O)NC(=O)[C@@H](N)C(C)C)C(=O)N[C@@H](Cc1ccc(O)cc1)C(=O)N[C@@H](CC(N)=O)C(=O)N[C@H](CCCNC(=N)N)C(N)=O
MIC (Escherichia coli; broth microdilution; MC4100; 18 h, 37 °C, 25% MHB2): 8 µg/mL

Cc1ccc(C(C=NOCc2ccc(-c3nc4cc(-c5ccccc5)ccn4c3Nc3ccc(C(=O)O)cc3)cc2)=CN(C)C)cc1 (mixture of isomers)
inhibition (Tyrosyl-DNA phosphodiesterase 1 (TDP1, Homo sapiens, UniProt Q9NUW8); enzyme activity, inhibitor; 100 µM, unpurified compound): 54.2%

CC[C@H]1OC(=O)[C@H](C)[C@@H](OC(=O)Cc2ccccc2[N+](=O)[O-])[C@H](C)[C@@H](O[C@@H]2O[C@H](C)C[C@H](N(C)C)[C@H]2O)[C@](C)(OC)C[C@@H](C)C(=O)[C@H](C)[C@@H](O)[C@]1(C)O
MIC (Escherichia coli; lpxC): > 32 µg/mL

CCCCCCCCCCn1cc[n+](CCCCCCCCOc2cc(OCCCCCCCC[n+]3ccn(CCCCCCCCCC)c3)cc(OCCCCCCCC[n+]3ccn(CCCCCCCCCC)c3)c2)c1.[Br-].[Br-].[Br-]
MIC (Escherichia coli; MC4100): 8 µM

COc1cc(C(=O)Nc2ccc(C(=O)O)c(O)c2)ccc1NC(=O)c1ccc(NC(=O)[C@H](Cc2c[nH]nn2)NC(=O)c2ccc(NC(=O)/C(C)=C/c3ccc(O)cc3)cc2)cc1
MIC (Escherichia coli; broth microdilution; DSM 1116): 0.25 µg/mL

CC[C@H]1OC(=O)[C@H](C)[C@@H](OC(=O)Cc2c(F)cc([N+](=O)[O-])cc2F)[C@H](C)[C@@H](O[C@@H]2O[C@H](C)C[C@H](N(C)C)[C@H]2O)[C@](C)(OC)C[C@@H](C)C(=O)[C@H](C)[C@@H](O)[C@]1(C)O
MIC (Escherichia coli; lpxC): 32 µg/mL

CC[C@H](C)[C@H](NC(=O)[C@H](CCN)NC(=O)CCCCCCCCCCCNC(=O)CCCCCOC(=O)c1cn(C2CC2)c2cc(N3CCNCC3)c(F)cc2c1=O)C(=O)N[C@@H](CCN)C(=O)N[C@H](Cc1ccccc1)C(=O)N[C@@H](CC(C)C)C(=O)N[C@@H](CCN)C(=O)N[C@@H](C(=O)N[C@@H](CC(C)C)C(=O)N[C@@H](CO)C(N)=O)C(C)C
MIC (Escherichia coli): 2.52 µg/mL

COc1nc(C(=O)O)ccc1NC(=O)c1ccc(NC(=O)c2ccc(NC(=O)[C@H](Cc3c[nH]nn3)NC(=O)c3ccc(NC(=O)/C(C)=C/c4ccc(O)cc4)cc3)cc2)c(OC)c1O
MIC (Escherichia coli; broth microdilution; ciprofloxacin-sensitive): 2 µg/mL

NC[C@H]1O[C@H](O[C@H]2[C@H](O)[C@@H](O[C@H]3O[C@H](CO)[C@@H](O)[C@H](N)[C@H]3O)[C@H](N)C[C@@H]2N)[C@H](O)[C@@H](O)[C@@H]1O
MIC (Escherichia coli; 25922, Mueller-Hinton broth; 18 to 24 h, 37 °C): 4 µg/mL

CC1(C)C(NC(=O)C(=NOC2(C(=O)O)CCC2)c2csc(N)n2)C(=O)N1OS(=O)(=O)O (centres unmarked)
MIC (Escherichia coli; agar dilution; 16-1, ESBL-producing): 0.06 µg/mL

COc1ccc2ccc(O)c(/C=N/[C@H]3CCCC[C@H]3/N=C/c3cc(F)ccc3O)c2c1
MIC (Escherichia coli; microbial growth, broth dilution): > 40 µM

CCOc1c(NC(=O)c2ccc(NC(=O)[C@H](Cc3c[nH]nn3)NC(=O)c3ccc(NC(=O)/C(C)=C/c4ccc(O)cc4)cc3)cc2)ccc(C(=O)Nc2ccc(C(=O)O)c(O)c2OC)c1O
MIC (Escherichia coli; broth microdilution; BW25113): 0.016 µg/mL

CCCCCCCCCC[N+](C)(C)CCCCOc1cc(OCCCC[N+](C)(C)CCCCCCCCCC)cc(OCCCC[N+](C)(C)CCCCCCCCCC)c1.[Br-].[Br-].[Br-]
MIC (Escherichia coli; MC4100): 1 µM

COc1cc(C(=O)O)ccc1NC(=O)c1ccc(NC(=O)c2ccc(NC(=O)[C@H](Cc3c[nH]nn3)NC(=O)c3ccc(NC(=O)/C(C)=C/c4ccc(O)cc4)cc3)cc2)cc1
MIC (Escherichia coli; broth microdilution; ciprofloxacin-resistant): 0.5 µg/mL

CCCCCCCC(=O)Oc1c(C)c(OC)c2c(c1C)OC(=O)[C@@H](CCCCCC)[C@]2(O)/C=C/c1ccccc1 (racemic)
MIC (Escherichia coli; microbial growth, broth dilution; ATCC25922): 5000 µg/mL

Cn1nc(CCCC(=O)O)c(=O)c2c(=O)[nH]c(N)nc21
MIC (Escherichia coli; microbial growth, broth dilution; BW25113; 18 h): 25 µg/mL

COc1nc(C(=O)Nc2ccc(C(=O)O)nc2OC)ccc1NC(=O)c1ccc(NC(=O)[C@H](Cc2c[nH]nn2)NC(=O)c2ccc(NC(=O)/C(C)=C/c3ccc(O)cc3)cc2)cc1
MIC (Escherichia coli; broth microdilution; BW25113): 1 µg/mL

COc1c(C)c(OCc2ccccc2)c(C)c(OCc2ccccc2)c1C(=O)/C=C/c1ccccc1
MIC (Escherichia coli; microbial growth, broth dilution; ATCC25922): 5000 µg/mL

C#CCO/N=C(\C(=O)N[C@@H]1C(=O)N(S(=O)(=O)O)[C@H]1C)c1csc(N)n1
MIC (Escherichia coli; microbial growth, agar dilution; ATCC25): 0.5 µg/mL

COc1ccc2ccc(O)c(/C=N/[C@H]3CCCC[C@H]3/N=C/c3cccc(OC)c3O)c2c1
MIC (Escherichia coli; microbial growth, broth dilution): > 40 µM

c1ccc(CSc2nc3ccccc3cc2CNCCC2CCN(C3CCCC3)CC2)cc1
MIC (Escherichia coli; microbial growth, broth dilution): 64 µg/mL

CC[C@H](C)[C@H](NC(=O)[C@H](CCC(N)=O)NC(=O)[C@H](Cc1ccccc1)NC(=O)[C@H](CC(N)=O)NC(=O)[C@H](CCCCN)NC(=O)[C@H](CC(C)C)NC(=O)[C@H](CCCNC(=N)N)NC(=O)[C@H](CCCCN)NC(=O)[C@H](CCCCN)NC(=O)[C@@H](NC(=O)[C@H](CO)NC(=O)[C@H](CCCCN)NC(=O)CNC(=O)[C@H](CC(C)C)NC(=O)[C@H](CCCCN)NC(=O)[C@H](CCCCN)NC(=O)[C@H](CC(C)C)NC(=O)[C@H](CCCCN)NC(=O)[C@H](CCCCN)NC(=O)[C@H](CCCNC(=N)N)NC(=O)[C@H](CC(C)C)NC(=O)CNC(=O)[C@@H](N)CCCNC(=N)N)[C@@H](C)CC)C(=O)NCC(=O)N[C@@H](Cc1ccccc1)C(=O)N[C@@H](CO)C(=O)N[C@H](C(=O)N1CCC[C@H]1C(=O)N[C@@H](Cc1ccccc1)C(=O)N[C@@H](C)C(=O)NCC(=O)O)C(C)C
MIC (Escherichia coli; broth microdilution; ATCC 25922; 16 h, 37 °C, cation-adjusted Mueller-Hinton broth): 8 µg/mL

CO[C@H]1O[C@H](COC(c2ccccc2)(c2ccccc2)c2ccccc2)[C@@H](OS(=O)(=O)c2ccccc2)[C@H](OS(=O)(=O)c2ccccc2)[C@H]1OS(=O)(=O)c1ccccc1
MIC (Escherichia coli; microbial growth, broth dilution): 1.5 µg/mL

CN(Cc1nn(C)c2nc(N)[nH]c(=O)c2c1=O)c1nnn[nH]1
MIC (Escherichia coli; microbial growth, broth dilution; BW25113; 18 h): > 100 µg/mL

CN[C@H](CC(C)C)C(=O)N[C@H]1C(=O)N[C@@H](CC(N)=O)C(=O)N[C@H]2C(=O)N[C@H]3C(=O)N[C@H](C(=O)N[C@H](C(=O)O)c4cc(O)cc(O)c4-c4cc3ccc4O)[C@H](O)c3ccc(c(Cl)c3)Oc3cc2cc(c3O[C@@H]2O[C@H](CO)[C@@H](O)[C@H](O)[C@H]2O[C@H]2C[C@](C)(NCc3ccc(OCc4cn(CCCCC(=O)N[C@H](C(=O)N[C@@H](CCN)C(=O)N[C@H]5CCNC(=O)[C@H]([C@@H](C)O)NC(=O)[C@H](CCN)NC(=O)[C@H](CCN)NC(=O)[C@H](CC(C)C)NC(=O)[C@@H](CC(C)C)NC(=O)[C@H](CCN)NC5=O)[C@@H](C)O)nn4)c(OC)c3)[C@H](O)[C@H](C)O2)Oc2ccc(cc2Cl)[C@H]1O
MIC (Escherichia coli; broth microdilution; ATCC 35218, cation-adjusted Mueller-Hinton broth; 18 to 20 h, 37 °C, 0.002% polysorbate 80): 16 µg/mL

COC(C(N)=O)C(NC(=O)c1ccc(NC(=O)c2ccc(C#N)cc2)cc1)C(=O)Nc1ccc(C(=O)Nc2ccc(C(=O)Nc3ccc(C(=O)O)cc3)c(O)c2OC(C)C)cc1 (centres unmarked)
MIC (Escherichia coli; BW25113 ΔacrB): 0.04 µg/mL

CC[C@H]1OC(=O)[C@H](C)[C@@H](OC(=O)Cc2ccc(Cl)cc2)[C@H](C)[C@@H](O[C@@H]2O[C@H](C)C[C@H](N(C)C)[C@H]2O)[C@](C)(OC)C[C@@H](C)C(=O)[C@H](C)[C@@H](O)[C@]1(C)O
MIC (Escherichia coli; lpxC): > 32 µg/mL

COc1cc(C(=O)O)ccc1NC(=O)c1ccc(NC(=O)c2ccc(NC(=O)[C@H](Cc3c[nH]nn3)NC(=O)c3ccc(NC(=O)/C(C)=C/c4ccc(O)cc4)cc3)cc2)c(OC)c1
MIC (Escherichia coli; broth microdilution; ciprofloxacin-sensitive): 0.5 µg/mL

CCCCCCn1cc[n+](CCCCCCCCOc2cc(OCCCCCCCC[n+]3ccn(CCCCCC)c3)cc(OCCCCCCCC[n+]3ccn(CCCCCC)c3)c2)c1.[Br-].[Br-].[Br-]
MIC (Escherichia coli; MC4100): 1 µM

C/C(=C\c1ccc(O)cc1)C(=O)Nc1ccc(C(=O)N[C@@H](Cc2c[nH]nn2)C(=O)Nc2ccc(C(=O)Nc3ccc(C(=O)Nc4ccc(C(=O)O)cc4)c(O)c3)cc2)cc1
MIC (Escherichia coli; broth microdilution; BW25113): 0.063 µg/mL

CC[C@H]1OC(=O)[C@H](C)[C@@H](O[C@H]2C[C@@](C)(OC)[C@@H](O)[C@H](C)O2)[C@H](C)[C@@H](O[C@@H]2O[C@H](C)C[C@H](N(C)C)[C@H]2O)[C@](C)(OC)C[C@@H](C)C(=O)[C@H](C)[C@@H](O)[C@]1(C)O
MIC (Escherichia coli; tolC): 8 µg/mL

A few entries again:
CCCCCCCCCC[N+](C)(C)CCCCOc1cc(OCCCC[N+](C)(C)CCCCCCCCCC)cc(OCCCC[N+](C)(C)CCCCCCCCCC)c1.[Br-].[Br-].[Br-]
MIC (Escherichia coli; MC4100): 1 µM

CN(Cc1nn(C)c2nc(N)[nH]c(=O)c2c1=O)c1nnn[nH]1
MIC (Escherichia coli; microbial growth, broth dilution; BW25113; 18 h): > 100 µg/mL
